{"data": "Experimental data pooled from the literature", "note": "Each line is one published result; not all experiments were run side by side. ± marks the error that the study gave.", "chain of UniProt P10632 (whole entry, looked up)": "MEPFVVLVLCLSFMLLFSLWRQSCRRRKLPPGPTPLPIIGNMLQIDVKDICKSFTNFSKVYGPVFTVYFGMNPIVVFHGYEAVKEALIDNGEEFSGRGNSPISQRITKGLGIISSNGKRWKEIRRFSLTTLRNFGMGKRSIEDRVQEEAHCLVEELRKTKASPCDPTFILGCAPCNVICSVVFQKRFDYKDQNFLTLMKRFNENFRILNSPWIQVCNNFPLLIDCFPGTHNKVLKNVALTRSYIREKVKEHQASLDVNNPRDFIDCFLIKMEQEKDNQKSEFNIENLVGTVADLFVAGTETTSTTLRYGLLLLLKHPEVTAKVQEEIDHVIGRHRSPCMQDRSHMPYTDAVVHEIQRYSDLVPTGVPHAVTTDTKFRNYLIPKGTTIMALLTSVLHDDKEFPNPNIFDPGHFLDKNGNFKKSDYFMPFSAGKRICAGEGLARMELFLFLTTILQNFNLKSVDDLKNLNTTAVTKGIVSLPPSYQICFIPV"}
{"Structure (SMILES)": "CN1[C@H]2CC[C@@H]1[C@@H](C(=O)O)[C@@H](OC(=O)c1ccccc1)C2", "test system": "rat, whole blood", "setting": "1000 nM, 4 months, -80 °C, long-term storage", "measurement": "stability bias", "value": "9.98%"}
{"Structure (SMILES)": "O=C1c2c(O)c(=O)ccn2N([C@@H]2c3ccccc3SCc3c2ccc(F)c3F)[C@@H]2COCCN12", "test system": "BALB/c mouse", "setting": "subcutaneous, 1 mg/kg q12h", "measurement": "Cmax", "value": "62.1 ng/mL"}
{"Structure (SMILES)": "O=c1ccc2ccccc2o1", "target or system": "NHEK", "test": "mitochondrial reserve capacity, Seahorse", "setting": "24 h", "measurement": "point of departure", "value": "614 µM"}
{"Structure (SMILES)": "COC(=O)[C@@H]1[C@H]2CC[C@@H](C[C@@H]1O)N2C", "test system": "rat, whole blood", "setting": "10 nM, 4 h, room temperature, bench-top storage", "measurement": "stability bias", "value": "2.83%"}
{"Structure (SMILES)": "COc1cc2c(Oc3ccc4[nH]c(C)cc4c3F)ccnc2cc1OCC1(N)CC1", "test system": "paediatric refractory sarcoma patients", "setting": "10 mg", "measurement": "ALP elevation incidence", "value": "25%"}
{"Structure (SMILES)": "CC(C)(C)NC[C@H](O)COc1ccccc1C1CCCC1", "target or system": "African green monkey cells", "setting": "5 days", "measurement": "CC50", "value": "29.5 µM"}
{"Structure (SMILES)": "CO[C@H]1C[C@@H]2CC[C@@H](C)[C@@](O)(O2)C(=O)C(=O)N2CCCC[C@H]2C(=O)O[C@H]([C@H](C)C[C@@H]2CC[C@@H](OC(=O)NCCOCCOCCOCCOCCOCCOCCOCCOCCC(=O)N3CCc4cc(Cn5nc(-c6ccc7oc(N)nc7c6)c6c(N)ncnc65)ccc4C3)[C@H](OC)C2)C[C@@H](O)[C@H](C)/C=C(\\C)[C@@H](O)[C@@H](OC)C(=O)[C@H](C)C[C@H](C)/C=C/C=C/C=C/1C", "test system": "patients with advanced solid tumours", "setting": "intravenous, 8 mg weekly, any grade", "measurement": "AE leading to dose interruption", "value": "56.3%"}
{"Structure (SMILES)": "CCN(CC)Cc1ccc2cc(COC(=O)Nc3ccc(C(=O)NO)cc3)ccc2c1", "target or system": "African green monkey cells", "setting": "5 days", "measurement": "CC50", "value": "0.767 µM"}
{"Structure (SMILES)": "COC(=O)[C@H]1[C@@H](OC(=O)c2ccccc2)C[C@@H]2CC[C@H]1N2", "test system": "rat, whole blood", "setting": "1000 nM, 4 months, -80 °C, long-term storage", "measurement": "stability bias", "value": "12.2%"}
{"Structure (SMILES)": "COc1nc2ccc(Br)cc2cc1[C@@H](c1ccccc1)[C@@](O)(CCN(C)C)c1cccc2ccccc12", "target or system": "African green monkey cells", "setting": "5 days", "measurement": "CC50", "value": "13.7 µM"}
{"Structure (SMILES)": "CC(C)CC(=O)OC[C@H]1O[C@@](C#N)(c2ccc3c(N)ncnn23)[C@H](O)[C@@H]1O", "target or system": "Cytochrome P450 2C8 (CYP2C8, Homo sapiens, UniProt P10632)", "test": "metabolic stability", "test system": "recombinant enzyme", "setting": "1 µM", "measurement": "intrinsic clearance", "value": "4.47 ± 0.13 µL/min/pmol"}
{"Structure (SMILES)": "CN1[C@@H]2CC[C@H]1C[C@@H](OC1c3ccccc3CCc3ccccc31)C2", "target or system": "African green monkey cells", "setting": "5 days", "measurement": "CC50", "value": "13.5 µM"}
{"Structure (SMILES)": "CN1CC[C@]23c4c5ccc(O[C@@H]6O[C@H](C(=O)O)[C@@H](O)[C@H](O)[C@H]6O)c4O[C@H]2[C@@H](O)C=C[C@H]3[C@H]1C5", "test system": "rat whole blood", "setting": "500 nM, 4 h, room temperature", "measurement": "stability bias", "value": "-12.8%"}
{"note": "Excerpt of the above:"}
{"Structure (SMILES)": "CN1CC[C@]23c4c5ccc(O[C@@H]6O[C@H](C(=O)O)[C@@H](O)[C@H](O)[C@H]6O)c4O[C@H]2[C@@H](O)C=C[C@H]3[C@H]1C5", "test system": "rat whole blood", "setting": "500 nM, 4 h, room temperature", "measurement": "stability bias", "value": "-12.8%"}
